Published values pooled from the literature.
Parts stem from different laboratories: compare values within a part only. Substitutions count along the parent as printed.
UniProt P35348, sequence (whole entry, looked up): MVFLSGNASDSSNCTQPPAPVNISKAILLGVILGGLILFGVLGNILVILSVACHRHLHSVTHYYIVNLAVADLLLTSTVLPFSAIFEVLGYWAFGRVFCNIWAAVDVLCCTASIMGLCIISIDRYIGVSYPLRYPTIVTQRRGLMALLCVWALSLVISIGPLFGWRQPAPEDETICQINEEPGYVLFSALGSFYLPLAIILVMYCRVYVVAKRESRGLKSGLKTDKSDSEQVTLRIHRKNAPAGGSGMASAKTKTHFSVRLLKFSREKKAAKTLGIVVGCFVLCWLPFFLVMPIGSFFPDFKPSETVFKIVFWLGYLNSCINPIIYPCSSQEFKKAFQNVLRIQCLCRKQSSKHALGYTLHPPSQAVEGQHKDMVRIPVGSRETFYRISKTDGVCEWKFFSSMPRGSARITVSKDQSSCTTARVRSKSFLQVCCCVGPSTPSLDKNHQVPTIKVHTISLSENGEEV

Block 1
Target: CCNB2, cyclin fold, Cln2 fusion (human)
Technique: yeast growth competition, sequencing
Sample: yeast
Setting: weak parent motif
Baseline: not given
Direction: higher = stronger binding
Starting sequence: SLBP docking peptide (human); ARYKRKLLINDFG; partner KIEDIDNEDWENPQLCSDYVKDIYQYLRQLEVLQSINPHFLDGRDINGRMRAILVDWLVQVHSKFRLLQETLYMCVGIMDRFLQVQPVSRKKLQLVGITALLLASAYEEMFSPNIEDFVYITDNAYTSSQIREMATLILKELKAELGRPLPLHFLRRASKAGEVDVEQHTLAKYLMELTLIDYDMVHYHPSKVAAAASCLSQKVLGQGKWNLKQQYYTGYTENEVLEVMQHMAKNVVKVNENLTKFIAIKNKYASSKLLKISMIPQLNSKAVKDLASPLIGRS
| Substitution | normalised enrichment score |
| --- | --- |
| I9H | 0.82 |
| A1F | 0.199 |
| G13V | 1.26 |
| K4W | 1.08 |
| K4I | 0.316 |
| D11C | 0.581 |
| Y3D | 0.306 |
| F12P | 0.918 |

Block 2
Target: Phosphate system positive regulatory protein PHO4, full length, GST-tagged (PHO4, Saccharomyces cerevisiae, UniProt P07270, residues 1-312)
Technique: competition protein-binding microarray
Molecule type: double-stranded DNA, one strand shown
Sample: in vitro
Tested at: 2 µM
Setting: whole 60-bp probe, lowest competitor level
Added: Cbf1 competitor, 0.05 µM
Direction: higher = stronger binding
Constant ends, left off below: … GTCTTGATTCGCTTGACGCTGCTG
Construct (chain): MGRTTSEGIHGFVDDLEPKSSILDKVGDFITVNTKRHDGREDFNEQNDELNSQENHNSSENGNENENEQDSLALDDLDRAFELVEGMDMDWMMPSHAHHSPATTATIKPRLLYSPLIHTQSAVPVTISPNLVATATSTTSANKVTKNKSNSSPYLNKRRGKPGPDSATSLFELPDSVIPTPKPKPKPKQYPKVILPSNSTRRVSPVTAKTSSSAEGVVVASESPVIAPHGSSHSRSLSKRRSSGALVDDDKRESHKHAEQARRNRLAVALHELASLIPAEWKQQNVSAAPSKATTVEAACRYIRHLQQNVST
| Oligonucleotide | fluorescence intensity |
| --- | --- |
| GAAGGTTCCCGGTCCGTTGTGATGGGAAGATCTGAC | 3590 a.u. |
| AAGTTTTTGTATGAGCATGTGACAGTAAATGCGAAC | 9420 a.u. |
| GCTGACGCTATCCGTCACGTGGTGATGGCAGCTGCT | 14400 a.u. |
| TTGAGCATAATCCATCACGTGATGGACACCCATACC | 12500 a.u. |
| CTTTCCCGATCTTTTCACGTGTCGTTAGCACATTTG | 14400 a.u. |
| TCTATGGCATGTAGAGTCGTGATGGCTGCTGTACGC | 5500 a.u. |
| AAATTACTAAGTTGCGTAGTGGGTGACGCCGTATGA | 3970 a.u. |
| CTTTCCCGATCTTGTCACAGCACTTTAGCACATTTG | 4250 a.u. |

Block 3
Target: POU domain, class 6, transcription factor 1, POU and homeodomain (POU6F1, Homo sapiens, UniProt Q14863, residues 311-611)
Technique: protein-binding microarray
Molecule type: hairpin DNA
Sample: in vitro
Tested at: not given
Setting: whole hairpin DNA, median over replicate spots
Baseline: not given
Direction: higher = stronger binding
Constant ends, left off below: GAGGCC … GGCCTCACACTCTT
Target sequence (chain): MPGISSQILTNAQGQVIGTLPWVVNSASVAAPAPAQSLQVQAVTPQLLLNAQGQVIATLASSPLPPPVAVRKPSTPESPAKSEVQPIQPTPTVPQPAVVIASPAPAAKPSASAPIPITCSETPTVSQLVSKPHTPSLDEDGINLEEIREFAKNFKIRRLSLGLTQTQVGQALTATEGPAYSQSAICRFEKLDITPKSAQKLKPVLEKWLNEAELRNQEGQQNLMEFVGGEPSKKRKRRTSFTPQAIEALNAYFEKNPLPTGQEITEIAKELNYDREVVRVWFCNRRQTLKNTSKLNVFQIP
| Oligonucleotide | median fluorescence |
| --- | --- |
| ATAACGAGGTGCCTCCTGGCACCTCGTTAT | 410 a.u. |
| ATACGTAGGTGCCTCCTGGCACCTACGTAT | 332 a.u. |
| ATAATAAGGTGCCTCCTGGCACCTTATTAT | 935 a.u. |
| ATAATCGGGTGCCTCCTGGCACCCGATTAT (5mC at 12) | 410 a.u. |
| CTAATGAGGTGCCTCCTGGCACCTCATTAG (5mC at 7) | 1430 a.u. |
| ATAAGTAGGTGCCTCCTGGCACCTACTTAT (5mC at 32) | 851 a.u. |
| ATCATGAGGTGCCTCCTGGCACCTCATGAT | 391 a.u. |
| ATAATCAGGTGCCTCCTGGCACCTGATTAT | 692 a.u. |

Mixed results
| Structure (SMILES) | target | effect on | tested at | measurement | result |
| --- | --- | --- | --- | --- | --- |
| CN1C(=O)[C@@H](N2CCc3c(nn(Cc4ccccc4)c3Br)C2=O)COc2ccccc21 | Alpha-1A adrenergic receptor (ADRA1A, Homo sapiens, UniProt P35348) | cell-free assay | 10 µM | inhibition | -4.83% |

For quick reference, copied from above (block 1):
| Substitution | normalised enrichment score |
| --- | --- |
| A1F | 0.199 |
| G13V | 1.26 |
| K4W | 1.08 |
| K4I | 0.316 |
